Experimental data pooled from the literature.
Each line is one published result; not all experiments were run side by side. Numbers after ± are the reported error.

Amino acid sequences for entries named in this document (tags omitted). Residues count along the entry.
UniProt P42262, 25-883 limits assumed: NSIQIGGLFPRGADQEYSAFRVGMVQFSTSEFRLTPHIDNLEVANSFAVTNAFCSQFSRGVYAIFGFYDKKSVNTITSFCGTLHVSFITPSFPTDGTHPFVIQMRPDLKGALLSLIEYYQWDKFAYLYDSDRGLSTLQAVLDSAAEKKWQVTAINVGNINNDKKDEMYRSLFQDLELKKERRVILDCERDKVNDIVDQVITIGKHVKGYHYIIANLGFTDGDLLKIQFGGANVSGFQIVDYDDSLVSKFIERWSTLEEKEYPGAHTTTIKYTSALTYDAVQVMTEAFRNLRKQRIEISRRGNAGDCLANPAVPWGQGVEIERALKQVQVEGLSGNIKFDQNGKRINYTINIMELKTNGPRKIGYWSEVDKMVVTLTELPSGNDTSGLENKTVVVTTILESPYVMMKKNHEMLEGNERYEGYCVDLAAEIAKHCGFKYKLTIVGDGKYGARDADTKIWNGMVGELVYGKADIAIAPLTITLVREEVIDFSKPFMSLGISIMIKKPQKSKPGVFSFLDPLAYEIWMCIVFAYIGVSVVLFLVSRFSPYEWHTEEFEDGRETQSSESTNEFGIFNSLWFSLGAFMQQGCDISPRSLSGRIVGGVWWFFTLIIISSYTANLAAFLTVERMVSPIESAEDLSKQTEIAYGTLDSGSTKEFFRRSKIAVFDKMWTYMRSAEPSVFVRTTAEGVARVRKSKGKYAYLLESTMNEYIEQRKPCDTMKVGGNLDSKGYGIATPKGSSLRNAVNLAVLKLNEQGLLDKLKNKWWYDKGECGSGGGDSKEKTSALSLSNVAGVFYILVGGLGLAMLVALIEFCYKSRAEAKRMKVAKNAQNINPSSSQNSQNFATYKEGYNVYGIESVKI
UniProt P08684, whole entry: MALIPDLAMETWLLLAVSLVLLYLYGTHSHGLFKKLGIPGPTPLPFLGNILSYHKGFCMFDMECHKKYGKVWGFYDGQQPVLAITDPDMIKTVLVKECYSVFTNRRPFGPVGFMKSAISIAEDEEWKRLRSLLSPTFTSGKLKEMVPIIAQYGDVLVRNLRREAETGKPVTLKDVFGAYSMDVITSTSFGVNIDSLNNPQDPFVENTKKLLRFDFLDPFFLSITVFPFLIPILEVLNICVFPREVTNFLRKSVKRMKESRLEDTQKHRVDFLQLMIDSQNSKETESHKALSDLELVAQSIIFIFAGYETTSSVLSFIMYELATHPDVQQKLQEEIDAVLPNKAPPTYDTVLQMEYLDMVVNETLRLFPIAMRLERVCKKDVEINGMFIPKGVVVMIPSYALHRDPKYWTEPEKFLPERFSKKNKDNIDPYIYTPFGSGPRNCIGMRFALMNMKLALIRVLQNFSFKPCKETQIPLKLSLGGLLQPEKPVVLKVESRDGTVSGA
UniProt P41595, whole entry: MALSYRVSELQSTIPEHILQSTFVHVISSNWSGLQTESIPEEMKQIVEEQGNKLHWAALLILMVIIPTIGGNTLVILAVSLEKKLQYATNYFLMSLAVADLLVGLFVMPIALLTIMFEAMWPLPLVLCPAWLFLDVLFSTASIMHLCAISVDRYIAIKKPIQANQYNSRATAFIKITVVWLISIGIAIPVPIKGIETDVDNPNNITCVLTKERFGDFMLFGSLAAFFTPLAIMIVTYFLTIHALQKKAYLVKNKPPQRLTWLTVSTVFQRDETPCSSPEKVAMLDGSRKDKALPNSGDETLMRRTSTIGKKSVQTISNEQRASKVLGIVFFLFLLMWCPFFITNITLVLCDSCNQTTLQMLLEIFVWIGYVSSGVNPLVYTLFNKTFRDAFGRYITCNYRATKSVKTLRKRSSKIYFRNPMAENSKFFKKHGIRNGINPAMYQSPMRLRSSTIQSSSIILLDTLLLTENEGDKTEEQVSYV
UniProt P10635, whole entry: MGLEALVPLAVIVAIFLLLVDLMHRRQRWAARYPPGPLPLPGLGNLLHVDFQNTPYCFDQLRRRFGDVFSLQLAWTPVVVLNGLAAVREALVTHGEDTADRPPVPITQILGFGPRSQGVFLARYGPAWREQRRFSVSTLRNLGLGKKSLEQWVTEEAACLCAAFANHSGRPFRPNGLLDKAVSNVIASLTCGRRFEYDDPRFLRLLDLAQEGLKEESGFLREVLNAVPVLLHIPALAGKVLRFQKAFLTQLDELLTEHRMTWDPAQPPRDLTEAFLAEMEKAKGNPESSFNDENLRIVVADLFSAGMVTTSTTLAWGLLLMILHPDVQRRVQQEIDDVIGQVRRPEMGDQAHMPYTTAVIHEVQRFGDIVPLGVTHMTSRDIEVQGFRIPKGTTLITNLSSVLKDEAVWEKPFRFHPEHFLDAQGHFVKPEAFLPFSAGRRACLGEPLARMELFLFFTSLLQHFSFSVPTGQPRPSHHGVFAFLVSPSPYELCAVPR

`CCN(CC)C(=O)Oc1ccc(C(=O)Nc2cccc3cc[nH]c23)cc1` gave a current response of 101 ± 1.9% (Glutamate receptor 2 (Homo sapiens, UniProt P42262); modulator, two-electrode voltage clamp; Xenopus oocytes; 20 µM, with: 100 µM glutamate; baseline: agonist alone).
The Tmax of `CC#C/C(=N\OC[C@H]1COCCN1)c1ccc2ncnc(Nc3ccc(OCc4cccc(F)c4)c(Cl)c3)c2c1` is reported as 60 min (nude mouse, plasma; oral, 100 mg/kg).
The IC50 of `CCOc1ccc2cc(-c3nn(CC4CCN(C)CC4)c4ncnc(N)c34)ccc2n1` is reported as > 100 µM (Cytochrome P450 3A4 (CYP3A4, Homo sapiens, UniProt P08684); inhibitor).
`CCCN1CCN(c2ccc3c(c2)C2CC3CCN2C(=O)OCc2ccccc2)CC1` (stereo not drawn) has a Ki of 0.868 µM (5-hydroxytryptamine receptor 2B (HTR2B, Homo sapiens, UniProt P41595); binding, radioligand binding).
For `C[C@H](Cc1ccc(O)c(O)c1)[C@@H](C)Cc1ccc(O)c(O)c1`, “total amount delivered” read 30.5 ± 3.17 µg (human skin; 4% w/v solution, 24 h).
For `CC(=O)N1C[C@@H](COP(=O)(N(C)C)N2C[C@@H](COP(=O)(N(C)C)N3C[C@@H](COP(=O)(N(C)C)N4C[C@@H](COP(=O)(N(C)C)N5C[C@@H](COP(=O)(N(C)C)N6C[C@@H](COP(=O)(N(C)C)N7C[C@@H](COP(=O)(N(C)C)N8C[C@@H](COP(=O)(N(C)C)N9C[C@@H](COP(=O)(N(C)C)N%10C[C@@H](COP(=O)(N(C)C)N%11C[C@@H](COP(=O)(N(C)C)N%12C[C@@H](COP(=O)(N(C)C)N%13C[C@@H](COP(=O)(N(C)C)N%14C[C@@H](COP(=O)(N(C)C)N%15C[C@@H](COP(=O)(N(C)C)N%16C[C@@H](COP(=O)(N(C)C)N%17C[C@@H](COP(=O)(N(C)C)N%18C[C@@H](COP(=O)(N(C)C)N%19C[C@@H](COP(=O)(N(C)C)N%20C[C@@H](COP(=O)(N(C)C)N%21C[C@@H](COP(=O)(N(C)C)N%22C[C@@H](COP(=O)(N(C)C)N%23C[C@@H](COP(=O)(N(C)C)N%24CCN(C(=O)CCCN%25C(=O)CC(SC[C@H](NC(=O)[C@H](CCCNC(=N)N)NC(=O)[C@H](CCCNC(=N)N)NC(=O)[C@H](CCCNC(=N)N)NC(=O)[C@H](CCCNC(=N)N)NC(=O)[C@H](Cc%26ccccc%26)NC(=O)[C@H](Cc%26ccccc%26)NC(=O)[C@H](CCCNC(=N)N)NC(=O)[C@H](CCCNC(=N)N)NC(=O)[C@H](CCCNC(=N)N)NC(=O)[C@H](CCCNC(=N)N)NC(=O)[C@@H](N)CCCNC(=N)N)C(N)=O)C%25=O)CC%24)O[C@@H](n%24cnc%25c(=O)[nH]c(N)nc%25%24)C%23)O[C@@H](n%23cc(C)c(=O)[nH]c%23=O)C%22)O[C@@H](n%22ccc(N)nc%22=O)C%21)O[C@@H](n%21cnc%22c(N)ncnc%22%21)C%20)O[C@@H](n%20cc(C)c(=O)[nH]c%20=O)C%19)O[C@@H](n%19ccc(N)nc%19=O)C%18)O[C@@H](n%18cc(C)c(=O)[nH]c%18=O)C%17)O[C@@H](n%17cc(C)c(=O)[nH]c%17=O)C%16)O[C@@H](n%16cnc%17c(=O)[nH]c(N)nc%17%16)C%15)O[C@@H](n%15ccc(N)nc%15=O)C%14)O[C@@H](n%14cnc%15c(=O)[nH]c(N)nc%15%14)C%13)O[C@@H](n%13ccc(N)nc%13=O)C%12)O[C@@H](n%12ccc(N)nc%12=O)C%11)O[C@@H](n%11cnc%12c(N)ncnc%12%11)C%10)O[C@@H](n%10cc(C)c(=O)[nH]c%10=O)C9)O[C@@H](n9cc(C)c(=O)[nH]c9=O)C8)O[C@@H](n8cc(C)c(=O)[nH]c8=O)C7)O[C@@H](n7cc(C)c(=O)[nH]c7=O)C6)O[C@@H](n6cc(C)c(=O)[nH]c6=O)C5)O[C@@H](n5cnc6c(=O)[nH]c(N)nc65)C4)O[C@@H](n4cc(C)c(=O)[nH]c4=O)C3)O[C@@H](n3cnc4c(=O)[nH]c(N)nc43)C2)O[C@@H](n2cnc3c(=O)[nH]c(N)nc32)C1` (stereo partly drawn), the viability was 96% (BCBL1 cells; 16 µM; baseline: mock-treated).
For `CCN1CCN(Cc2ccc(NC(=O)c3ccc(C)c(/C=C/c4cnc5[nH]ccc5c4OC)c3)cc2C(F)(F)F)CC1`, “log2 fold change” read 0.105 (SPTBN1-FLT3 fusion; kinase-CDC37 interaction, cell-based kinome screen; 5 µM; baseline: vehicle).
For `O=C(Nc1ccccc1)c1cc([N+](=O)[O-])ccc1Cl`, the revertants was 2040 ± 46 revertants/plate (Salmonella typhimurium; Ames plate incorporation; TA100; 500 µg/plate, without metabolic activation).
`CSc1nc(Cl)cc(Sc2nnc(-c3cc(C(F)(F)F)cc(C(F)(F)F)c3)[nH]2)n1` has an MIC of > 590 µg/mL (Klebsiella spp.).
The CC50 of `CSCC[C@@H](C=O)NC(=O)[C@H](CC(C)C)NC(=O)[C@H](CC(C)C)NC(C)=O` is reported as > 100 µM (Vero; neutral red uptake; 48 h).
For `CO[C@]12CC[C@@]3(C[C@@H]1C(C)(C)O)[C@H]1Cc4ccc(O)c5c4[C@@]3(CCN1CC1CC1)[C@H]2O5`, the inhibition was 59.9% (Cytochrome P450 2D6 (CYP2D6, Homo sapiens, UniProt P10635); human liver microsomes; 10 µM).
For `C=C[C@@H]1[C@H]2CCC[C@]1(c1cccc(O)c1)CCN2CCc1ccccc1`, the half-life was 2.4 min (rat liver microsomes 0.5 mg/mL; 1 µM, pH 7.4, with: NADPH).

For quick reference, copied from above:
For `O=C(Nc1ccccc1)c1cc([N+](=O)[O-])ccc1Cl`, the revertants was 2040 ± 46 revertants/plate (Salmonella typhimurium; Ames plate incorporation; TA100; 500 µg/plate, without metabolic activation).
